Published values pooled from the literature.
Numbered parts are unrelated; each lists some results of a single study.

Study 1
Target: Ras GTPase-activating protein-binding protein 1, full length (G3BP1, Homo sapiens, UniProt Q13283)
Sequence of UniProt Q13283 (whole entry, looked up): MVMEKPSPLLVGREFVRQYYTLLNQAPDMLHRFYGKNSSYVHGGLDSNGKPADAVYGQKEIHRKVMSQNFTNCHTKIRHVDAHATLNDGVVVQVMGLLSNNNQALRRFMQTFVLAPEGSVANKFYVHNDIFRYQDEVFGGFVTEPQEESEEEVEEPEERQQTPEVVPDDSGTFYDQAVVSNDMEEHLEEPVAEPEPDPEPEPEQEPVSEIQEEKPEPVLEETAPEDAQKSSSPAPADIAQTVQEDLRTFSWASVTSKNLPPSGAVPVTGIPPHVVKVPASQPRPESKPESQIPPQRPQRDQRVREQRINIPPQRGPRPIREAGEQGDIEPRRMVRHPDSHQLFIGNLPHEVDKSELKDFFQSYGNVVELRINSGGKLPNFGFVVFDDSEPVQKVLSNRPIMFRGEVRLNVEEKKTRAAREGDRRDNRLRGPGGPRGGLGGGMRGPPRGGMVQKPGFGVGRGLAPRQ
Technique: RNA Bind-n-Seq
Molecule type: RNA
Medium: in vitro
Tested at: 200 nM
Notes: whole 134-nt RNA, ends assumed
With: 150 mM KCl
Relative to: input library
Reading: higher = stronger binding
Shared flanks, not repeated: GGGAGUUCUACAGUCCGACGAUC … UGGAAUUCUCGGGUGUCAAGG
With `CCUGUGCUACACAUCGUAUGUACCGAAUCGGGGAAAAAGGGGUUUUUUUGGGGUUUGGGGAAAGUAUUAUGUUACGCCGUUCGGAUCUGC` the log2 enrichment was 0.412.
`UCAAGUCCUGUGCUACACAUCGUAUGUACCGAAUCGGCCCGGCCCGGGGCCCGGGAAAGUAUUAUGUUACGCCGUUCGGAUCUGCACUUC` has a log2 enrichment of -0.499.
For `CCUCAAGUCCUGUGCUACACAUCGUAUGUACCGAAUCGGUGGGGUGGGGUGGGAAAGUAUUAUGUUACGCCGUUCGGAUCUGCACUUCCA`, the log2 enrichment was 1.22.
`UAACUUUAGAGGAGGAUCUGAUGGAUAUGGCAGUGGACGUGGAUUUGGGGUUGGCUAUAAUGGGUAUGGAGGAGGACCUGGAGGUGGCAA` gave a log2 enrichment of 0.268.
`AGUCCUGUGCUACACAUCGUAUGUACCGAAUCGGGAAAAAGGGAAAAAGGGAAAGGGAAAGUAUUAUGUUACGCCGUUCGGAUCUGCACU` has a log2 enrichment of -0.338.
With `CACAGACCACACGCACCCACACAGACACAGAGGGAAGGGGUUGGGAUGGGGACAGGGUGCACAGCAGGGCGGGGUAGGACCCCAGCCCCU` the log2 enrichment was 1.78.
With `AGUCCUGUGCUACACAUCGUAUGUACCGAAUCGGGGCCCCCGGCCCCCGGCCCCCGGAAAGUAUUAUGUUACGCCGUUCGGAUCUGCACU` the log2 enrichment was -0.82.
`UCCUCAAGUCCUGUGCUACACAUCGUAUGUACCGAAUCGGGGCGGCGGCGGGAAAGUAUUAUGUUACGCCGUUCGGAUCUGCACUUCCAG` gave a log2 enrichment of 0.207.
`CCUCAAGUCCUGUGCUACACAUCGUAUGUACCGAAUCGGAGGUUUGGUUUGGAAAGUAUUAUGUUACGCCGUUCGGAUCUGCACUUCCAG` gave a log2 enrichment of 0.146.
With `UCCUCAAGUCCUGUGCUACACAUCGUAUGUACCGAAUCGGAGGAGGGGAGGGAAAGUAUUAUGUUACGCCGUUCGGAUCUGCACUUCCAG` the log2 enrichment was 0.28.

Study 2
Target: Interferon regulatory factor 5, full length, phosphomimetic (IRF5, Homo sapiens, UniProt Q13568-2, residues 1-514, K96S/S451D/S453D/S456D/S462D)
Technique: protein-binding microarray
Molecule type: double-stranded DNA, one strand shown
Medium: in vitro
Tested at: 250 nM
Notes: 60-bp whole probe
With: salmon DNA 0.4 mg/ml
Relative to: random background probes
Reading: higher = stronger binding
Shared flanks, not repeated: GCCTAGCAC … GTCTTGATTCGCTTGACGCTGCTG
The log fluorescence of `TCATATTAAAATTTAATACTGTGCTAG` is reported as 0.74 z-score.
The log fluorescence of `GACGGTTTCCTTCGCCTGACGTGCTAG` is reported as 0.589 z-score.
`TTCATTCCTGATCTCTGGTCGTGCTAG` has a log fluorescence of 0.434 z-score.
The log fluorescence of `GACGATTTCGGGACTAGAGACGTGCTA` is reported as 1.93 z-score.
With `CCCAATTGTCTTTTCACTTTGTGCTAG` the log fluorescence was 1.3 z-score.
With `GACGATATCGGGACTGGACACGTGCTA` the log fluorescence was 0.77 z-score.
For `TCATGTTTGGGCATTTTTACTGTGCTA`, the log fluorescence was 0.236 z-score.
`TTAGAACTGGGGTTCCGATTAGTGCTA` gave a log fluorescence of 0.245 z-score.
`TTAGGTATCGAATTTCGGTTAGTGCTA` has a log fluorescence of 7.64 z-score.
With `GAGTGTTTCTTCTGCTGACAGTGCTAG` the log fluorescence was 0.962 z-score.
For `GACGGACTGGGGTTTCGTGACGTGCTA`, the log fluorescence was -0.0961 z-score.
`GACGGTTTCGGTTTCGGGCCGTGCTAG` gave a log fluorescence of 10.4 z-score.
With `TTAGATTTCGTGACTGGATTAGTGCTA` the log fluorescence was 1.03 z-score.
`AAAAAAAATGGAAATCTACCCGTGCTA` gave a log fluorescence of 0.351 z-score.
`GACGGACTGCTAATGCTGACGTGCTAG` gave a log fluorescence of -0.707 z-score.
`TCAGGTTTCCTTTCCCTTTAGTGCTAG` gave a log fluorescence of 1.99 z-score.
`TTAGGACTGCGTTTCGGTTAGTGCTAG` gave a log fluorescence of 7.1 z-score.
For `TTCCCTCTGCTCCTCTTTTTGTGCTAG`, the log fluorescence was 0.537 z-score.
The log fluorescence of `TTAGGTTTCGACTATTGGTTAGTGCTA` is reported as 7 z-score.
The log fluorescence of `GACGGTATCGGTCTGGGGACGTGCTAG` is reported as 5.64 z-score.
For `TTAGGTATCGACACTGGGATAGTGCTA`, the log fluorescence was 2.42 z-score.
`TTATGTATCGGTATCGGTTAGTGCTAG` has a log fluorescence of 9.45 z-score.
`TCAGTTTTCTTTTCATTACTGTGCTAG` has a log fluorescence of 2.66 z-score.
With `TCAAGTCTGCAACATGGGACTGTGCTA` the log fluorescence was -0.296 z-score.
`GACGGTTTCGGGTCTCGGGACGTGCTA` gave a log fluorescence of 6.98 z-score.

Study 3
Target: Histone acetyltransferase KAT6A, both winged helices, GST fusion (KAT6A, Homo sapiens, UniProt Q92794, residues 1-181)
Technique: protein binding microarray
Molecule type: double-stranded DNA, one strand shown
Medium: in vitro
Tested at: not given
Notes: 8-mer, flanks averaged, mean of 2 arrays, mostly near background
Relative to: not given
Reading: higher = stronger binding
Target sequence (chain): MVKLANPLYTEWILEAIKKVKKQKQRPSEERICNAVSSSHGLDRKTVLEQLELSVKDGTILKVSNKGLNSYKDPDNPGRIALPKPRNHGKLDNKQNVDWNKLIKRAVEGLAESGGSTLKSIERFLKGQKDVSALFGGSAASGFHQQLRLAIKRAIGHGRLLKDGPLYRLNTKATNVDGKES
For `CAGCGGCC`, the E-score was 0.232.
`GCCCCCCA` has an E-score of -0.269.
The E-score of `AGATCAAT` is reported as -0.151.
For `AGATTACG`, the E-score was 0.152.
`ACTGGCCT` gave an E-score of -0.142.
The E-score of `AACCTTGT` is reported as 0.0138.
For `AAATACTG`, the E-score was -0.185.
The E-score of `ACCCTCGT` is reported as -0.0763.
For `GCATTATA`, the E-score was -0.0258.
`GGACATGA` gave an E-score of 0.0694.
`GCCCCGCA` has an E-score of 0.128.
With `CATATTCG` the E-score was 0.00651.
For `TCGGGGAA`, the E-score was 0.0878.
The E-score of `AGTGGCGC` is reported as 0.242.
The E-score of `AGGGGTAT` is reported as -0.225.
`AGGGGACC` has an E-score of -0.0702.
For `ACTAACTG`, the E-score was -0.0723.
`ACATACAC` has an E-score of 0.00309.
`CGTTCTCA` gave an E-score of 0.0755.

Study 4
Target: RNA binding protein fox-1 homolog 2, RRM domain, GST-SBP tag (RBFOX2, Homo sapiens, UniProt O43251-10, residues 100-194)
Technique: RNA Bind-n-Seq
Molecule type: RNA
Medium: in vitro
Tested at: 365 nM
Notes: natural RNA segment, single round, ends assumed
Relative to: no-protein control
Reading: higher = stronger binding
Shared flanks, not repeated: GGGAGUUCUACAGUCCGACGAUC … UGGAAUUCUCGGGUGCCAA
Construct (chain): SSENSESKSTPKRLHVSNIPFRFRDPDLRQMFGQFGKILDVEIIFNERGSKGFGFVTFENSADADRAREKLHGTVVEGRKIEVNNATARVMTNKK
Under “RBNS enrichment (R)”, `AUCUUUACAGUUCCUCGGGAAAAUGUGAAUGUGCUGCGUUUUGUUUUCUUUACUGUAUGAAAACAGGAAAAUAAAAGAGAAAUUUAGAAAAUACAGCUCAUUACAAUAAA` is recorded as 0.355.
`GUGUUACUGUGUUCCCUUAGAGCAUGUGGGCCAGUGGGCCACAUUCAUAAUGCAGUUGCCCAAGGCCUGUCUUGCAGUGGUACCUUAAAGUUAACCUCAUAAUCUUGGAA` — result for “RBNS enrichment (R)”: 1.24.
`UUUCCCUCCCUCACUUUUUCCUUUGUAAACACUCAUGACUGCUUCUCUGUCUCGAGUCAUCUCUGCAUUAACUCCCCUUCGUGGUCACUAGAGGGCUCUCUGAUGCCUUC` — result for “RBNS enrichment (R)”: 0.883.
`CUGGCACUCCUUGCUUUCAUCACCUUGACUUCUUCCUCUCAGUAGUGCCAAUCUCUCUAGGACCCUUAUAGCUCCCCACUCCCCCCAAAUCAAGUCCCAUGCUCCAAUCU`: “RBNS enrichment (R)” 1.43.
`GACUCAGUUAGGAGGCAUAAAUCUGCCCGGAAUAAACUAGGCCAGGAUACAGCCAUGUUUAGUUAAUAAUUUGGUUUUAGAAUUCACACAGGCAGGAUUGGUUUUUUUGU` — result for “RBNS enrichment (R)”: 0.654.
Under “RBNS enrichment (R)”, `GCUGGGUUGGAGGUGGGUAUCAAGUGAUUAUUUCCUAUCAAGACAUCUUUAAAUUAUAGAGCUCAGUAAUCAAUUUAAAGACAGUGUUAAGCUACUCACAGUGGCAAAUG` is recorded as 0.442.
For `AUGAAUUAAUUACGUUCCUGAUAGAUCACAGUCAAUCUUCUGAAGAUGAGUUAAAAAUGCCUUGUCUGGAUUAUUGGCAAAUCUUUGUCGGCACAAUCUUUCUGUUCAAA`, “RBNS enrichment (R)” read 0.36.
Under “RBNS enrichment (R)”, `CAGGGAAGUCAGACGGUGGAAGAUCUGCUGCAACCAUUAUCUCUGUUCUUUGUGUAUCAUGCAUUUAAAAUGAGAUGGAAAAGCAUUAGCAUACUGUGUAAAUAUGGACC` is recorded as 1.17.
`ACUGUUAAAGAUGUCAAGCCUAAAAAGUAAUAAAGUUUUUAUUUGGCUGUUGAACCUUGAUGUAGCCCCUACUACAUACACUACAAGUUAUGCCUUCUGGCUACUACAGA`: “RBNS enrichment (R)” 0.306.
`GUUGCUGCUCCUGCUUCACCUGUGGCAGACAUCGCUAAUCGAUCACAGCACUCUAUCUCUCAGAGUCUGGAUAAGAAUUCCCAUGCUUGUUGGGACGAGACCAACUGUGC` — result for “RBNS enrichment (R)”: 0.716.
`AAAGGCCCGAGUGGCUUUGAUGCAGUUGGUAACCACUUGAGAGCAGAGAUGUCUUAACUUGUCAGGAGUCCUUACCUGACAUGACCCUGUUUCAACAGGAAAGUAGAUGU` — result for “RBNS enrichment (R)”: 0.216.
Under “RBNS enrichment (R)”, `CAAGAACCAGCUAAACAAUUAGAUACAGUUUAAUAUUUGUACCUCCAAAUCUAUCACUUCCUUCCUUCUUUCCUUCCUUCCUUUCUUCCCUUGCUGGCCUCAAGCUUGCA` is recorded as 5.71.

For quick reference, copied from above (study 4):
For `AUGAAUUAAUUACGUUCCUGAUAGAUCACAGUCAAUCUUCUGAAGAUGAGUUAAAAAUGCCUUGUCUGGAUUAUUGGCAAAUCUUUGUCGGCACAAUCUUUCUGUUCAAA`, “RBNS enrichment (R)” read 0.36.
Under “RBNS enrichment (R)”, `CAGGGAAGUCAGACGGUGGAAGAUCUGCUGCAACCAUUAUCUCUGUUCUUUGUGUAUCAUGCAUUUAAAAUGAGAUGGAAAAGCAUUAGCAUACUGUGUAAAUAUGGACC` is recorded as 1.17.
`ACUGUUAAAGAUGUCAAGCCUAAAAAGUAAUAAAGUUUUUAUUUGGCUGUUGAACCUUGAUGUAGCCCCUACUACAUACACUACAAGUUAUGCCUUCUGGCUACUACAGA`: “RBNS enrichment (R)” 0.306.
`GUUGCUGCUCCUGCUUCACCUGUGGCAGACAUCGCUAAUCGAUCACAGCACUCUAUCUCUCAGAGUCUGGAUAAGAAUUCCCAUGCUUGUUGGGACGAGACCAACUGUGC` — result for “RBNS enrichment (R)”: 0.716.
